Measurements of several laboratories.
Numbered parts are unrelated; each lists some results of a single study.
Chain of UniProt Q96GD4 (whole entry, looked up): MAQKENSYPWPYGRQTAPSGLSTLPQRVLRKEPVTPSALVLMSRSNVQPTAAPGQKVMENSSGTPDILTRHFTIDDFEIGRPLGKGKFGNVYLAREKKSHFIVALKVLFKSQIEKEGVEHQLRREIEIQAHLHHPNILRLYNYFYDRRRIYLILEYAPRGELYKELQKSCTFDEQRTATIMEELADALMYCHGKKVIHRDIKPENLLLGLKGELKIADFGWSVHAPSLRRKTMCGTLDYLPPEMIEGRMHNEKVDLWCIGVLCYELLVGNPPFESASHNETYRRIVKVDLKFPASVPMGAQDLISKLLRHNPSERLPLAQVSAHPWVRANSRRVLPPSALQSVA
Chain of UniProt P21709 (whole entry, looked up): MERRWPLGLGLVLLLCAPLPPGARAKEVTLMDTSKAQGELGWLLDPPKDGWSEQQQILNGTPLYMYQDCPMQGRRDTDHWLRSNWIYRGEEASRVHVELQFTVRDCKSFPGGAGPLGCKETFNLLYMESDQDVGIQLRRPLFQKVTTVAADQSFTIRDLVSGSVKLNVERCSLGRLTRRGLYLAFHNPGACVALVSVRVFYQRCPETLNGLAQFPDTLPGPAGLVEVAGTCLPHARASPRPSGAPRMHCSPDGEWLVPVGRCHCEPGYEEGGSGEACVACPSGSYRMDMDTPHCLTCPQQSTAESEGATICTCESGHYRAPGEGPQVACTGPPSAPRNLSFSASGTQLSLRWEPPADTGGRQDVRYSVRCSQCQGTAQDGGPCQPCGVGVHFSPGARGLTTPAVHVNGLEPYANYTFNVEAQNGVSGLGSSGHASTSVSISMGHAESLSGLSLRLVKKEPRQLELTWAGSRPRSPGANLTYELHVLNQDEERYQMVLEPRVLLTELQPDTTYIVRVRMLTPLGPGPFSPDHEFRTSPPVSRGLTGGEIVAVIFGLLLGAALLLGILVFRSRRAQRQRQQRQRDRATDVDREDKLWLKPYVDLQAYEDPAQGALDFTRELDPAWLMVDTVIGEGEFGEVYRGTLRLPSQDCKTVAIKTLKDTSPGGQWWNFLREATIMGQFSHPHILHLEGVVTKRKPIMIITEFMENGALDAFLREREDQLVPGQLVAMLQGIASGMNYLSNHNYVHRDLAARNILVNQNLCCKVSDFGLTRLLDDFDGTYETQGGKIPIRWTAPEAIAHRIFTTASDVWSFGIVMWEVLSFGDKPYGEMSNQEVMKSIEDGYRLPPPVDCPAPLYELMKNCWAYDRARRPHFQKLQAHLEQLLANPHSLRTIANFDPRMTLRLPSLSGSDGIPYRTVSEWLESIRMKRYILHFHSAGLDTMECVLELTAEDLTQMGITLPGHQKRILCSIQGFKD

Sample 1
Target: Homeobox protein Hox-B13, full length (HOXB13, Homo sapiens, UniProt Q92826, residues 1-284)
Chain of UniProt Q92826 (whole entry, looked up): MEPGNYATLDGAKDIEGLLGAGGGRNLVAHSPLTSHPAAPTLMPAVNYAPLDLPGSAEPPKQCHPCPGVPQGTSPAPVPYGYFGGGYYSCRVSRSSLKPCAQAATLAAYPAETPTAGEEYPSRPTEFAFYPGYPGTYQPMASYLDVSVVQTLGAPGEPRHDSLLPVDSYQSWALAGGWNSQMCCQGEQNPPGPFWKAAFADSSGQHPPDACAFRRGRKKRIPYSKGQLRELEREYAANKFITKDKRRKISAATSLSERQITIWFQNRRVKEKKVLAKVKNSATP
Method: protein-binding microarray
Form: hairpin DNA
Sample: in vitro
Tested at: not given
Notes: whole hairpin DNA, median over replicate spots
Reference: not given
Reading: higher = stronger binding
Measurement: median fluorescence
GAGGCCGTATTATTGGGGCCTCCTGGCCCCAATAATACGGCCTCACACTC: 4570 a.u.
GAGGCCCTTTTATTGGGGCCTCCTGGCCCCAATAAAAGGGCCTCACACTC: 4460 a.u.
GAGGCCGTTTTATAGGGGCCTCCTGGCCCCTATAAAACGGCCTCACACTC: 4990 a.u.
GAGGCCGATTTATTGGGGCCTCCTGGCCCCAATAAATCGGCCTCACACTC: 5030 a.u.
GAGGCCGTTTCATTGGGGCCTCCTGGCCCCAATGAAACGGCCTCACACTC: 4330 a.u.
GAGGCCGCGTTATTGGGGCCTCCTGGCCCCAATAACGCGGCCTCACACTC: 4500 a.u.
GAGGCCGTTTTACCGGGGCCTCCTGGCCCCGGTAAAACGGCCTCACACTC (5mC at 14 30): 4270 a.u.
GAGGCCGTTTTAGTGGGGCCTCCTGGCCCCACTAAAACGGCCTCACACTC (5mC at 32): 4550 a.u.

Sample 2
SMILES: CN(C)C(=O)Cn1cc(-c2nc([C@@](C)(c3ccc(-c4cnc(N)nc4)cc3)C3CC3)no2)cn1
Observed: cell-free assay
Method: competition with immobilised ligand
Tested at: 1 µM
Measurement: remaining binding
Aurora kinase B (AURKB, Homo sapiens, UniProt Q96GD4): 96%
FLT3 (Homo sapiens, UniProt P36888, D835Y): 85%
EPHA1 (Homo sapiens, UniProt P21709): 97%

Sample 3
Target: TAR DNA-binding protein 43, full length, His tag (TARDBP, Homo sapiens, UniProt Q13148, residues 1-414)
Method: RNA Bind-n-Seq
Form: RNA
Sample: in vitro
Tested at: 20 nM
Notes: 6-mer, flanks averaged, single round
With: 150 mM LiCl
Reference: input library
Reading: higher = stronger binding
Measurement: 6-mer enrichment (R)
CGCGUG: 1.15
CAGGAG: 0.974
UGCUCG: 0.878
GGAUAC: 0.879
GCCCGA: 1.02
AUACUU: 0.891
CCCUUC: 1.08
UUUGCC: 1.12

Single results of other studies
CCC[C@@H]1NC(=O)CSC[C@@H](C(=O)OCC)N(C)C(=O)[C@H](CC(C)C)NC(=O)[C@H](C)N(C)C(=O)[C@H](CC(C)C)NC(=O)[C@H](C)N(C)C(=O)[C@@H]2CCCN2C(=O)[C@@H](CC(C)C)NC(=O)CN(CCC)C1=O
logD (hydrocarbon/water): 0.583

For quick reference, copied from above (sample 1):
GAGGCCGATTTATTGGGGCCTCCTGGCCCCAATAAATCGGCCTCACACTC: 5030 a.u.
GAGGCCGTTTCATTGGGGCCTCCTGGCCCCAATGAAACGGCCTCACACTC: 4330 a.u.
GAGGCCGCGTTATTGGGGCCTCCTGGCCCCAATAACGCGGCCTCACACTC: 4500 a.u.
